Results from different studies.
Protocols differ between the studies behind these lines. ± gives the spread as reported.

Structure (SMILES)	cell line	assay	conditions	how to read	measurement	value
CCCCCCCCCCCC(=O)N[C@H](CCC(=O)NC(CCCC(N)C(=O)O)C(=O)O)C(=O)O (stereo partly drawn)	HFF-1		0.1 µg/mL		viability	94.8%
CC(=O)N[C@@H](CCCCN)C(=O)N[C@@H](CC(C)C)C(=O)N[C@@H](CC(C)C)C(=O)N[C@@H](CCCCN)C(=O)N[C@@H](CC(C)C)C(=O)N[C@@H](CC(C)C)C(=O)N[C@@H](CCCCN)C(=O)N[C@@H](CCCCN)C(=O)N1CCC[C@H]1C(=O)N[C@@H](CC(C)C)C(=O)N[C@@H](CCCCN)C(=O)N[C@@H](CC(C)C)C(=O)N[C@@H](CC(C)C)C(N)=O	human red blood cells	haemolysis	6 h, 37 °C, 5% haematocrit in PBS		MHC10	> 160 µM
CN(C)CC/C=C1\c2ccccc2CSc2ccccc21	African green monkey cells		5 days		CC50	20 µM
CC(c1ccccc1)(c1ccc(O)cc1)c1ccc(O)cc1	HepG2 spheroids, dissociated	annexin V-FITC/PI flow cytometry	1 µM, 24 h		late apoptotic cells	9.91 ± 2.97%
O=c1ccc2ccccc2o1	NHEK	cell cycle arrest	concentration not given, 6 h		chance response	0.19%
CNC(=O)[C@@H](c1ccccc1)N1CCc2cc(OC)c(OC)cc2[C@@H]1CCc1ccc(C(F)(F)F)cc1	African green monkey cells		5 days		CC50	21.4 µM
CC[C@H](C)[C@H](NC(=O)[C@H](CC(C)C)NC(=O)[C@@H]1CCCN1C(=O)[C@H](CCC(N)=O)NC(=O)[C@H](CCCCN)NC(=O)[C@H](Cc1c[nH]cn1)NC(=O)[C@H](CS)NC(=O)[C@H](CCCNC(=N)N)NC(=O)[C@H](CCCCN)NC(=O)[C@H](CO)NC(=O)[C@H](CC(C)C)NC(=O)[C@H](CO)NC(=O)[C@H](Cc1ccccc1)NC(=O)[C@H](CC(C)C)NC(=O)[C@H](CCCCN)NC(=O)[C@H](Cc1c[nH]cn1)NC(=O)[C@@H](NC(=O)[C@@H](NC(=O)[C@H](CCCCN)NC(=O)[C@H](CCC(N)=O)NC(=O)[C@H](C)NC(=O)[C@H](CCCCN)NC(=O)[C@H](CC(C)C)NC(=O)[C@H](Cc1ccccc1)NC(=O)[C@H](CC(C)C)NC(=O)[C@H](CCC(N)=O)NC(=O)[C@@H](N)CCCCN)[C@@H](C)CC)C(C)C)C(=O)N[C@@H](CO)C(=O)N[C@@H](CC(C)C)C(=O)N1CCC[C@H]1C(=O)N[C@@H](CCCNC(=N)N)C(=O)N[C@@H](CCC(N)=O)C(=O)N[C@@H](CCCNC(=N)N)C(=O)O	human red blood cells	hemolysis			HC50	40.2 µmol/L
O=S(=O)(c1ccc(O)cc1)c1ccc(O)cc1	HepG2 spheroids	annexin V-FITC/PI flow cytometry	1 µM, 96 h		necrotic cells	36.5 ± 7.95%
Clc1cnn(CCCCN2CCN(c3ncccn3)CC2)c1	African green monkey cells		5 days		CC50	> 100 µM
Oc1ccc(C(c2ccc(O)cc2)(C(F)(F)F)C(F)(F)F)cc1	HepG2 spheroids	annexin V-FITC/PI flow cytometry	1 µM, 96 h		late apoptotic cells	32.6 ± 7.96%
Cc1nc(-c2ccc(OCCc3cccc(F)c3)c(C(N)=O)c2)cs1	HepG2		3 (unit not given)	reference: CC50 glucose over CC50 galactose	selectivity ratio	1
COC(=O)N[C@H](C(=O)N1CCC[C@H]1c1nc(-c2ccc(-c3ccc(-c4c[nH]c([C@@H]5CCCN5C(=O)[C@@H](NC(=O)OC)C(C)C)n4)cc3)cc2)c[nH]1)C(C)C	African green monkey cells		5 days		CC50	19.7 µM
CC[C@H](C)[C@H](NC(=O)[C@H](CC(=O)O)NC(=O)[C@@H](NC(=O)[C@H](CC(N)=O)NC(=O)[C@@H]1CCCN1C(=O)[C@@H](NC(=O)[C@H](Cc1ccccc1)NC(=O)CNC(=O)CNC(=O)CNC(=O)[C@H](CC(C)C)NC(=O)[C@H](CCCCN)NC(=O)[C@H](CCCCN)NC(=O)[C@H](CC(C)C)NC(=O)[C@H](CC(C)C)NC(=O)[C@H](CC(C)C)NC(=O)[C@H](CC(C)C)NC(=O)[C@H](CC(C)C)NC(=O)[C@H](CCCCN)NC(=O)[C@H](CCCCN)NC(=O)[C@@H](N)CC(C)C)[C@@H](C)O)[C@@H](C)O)C(=O)N[C@H](C(=O)N[C@H](C(=O)N[C@@H](CCCNC(=N)N)C(=O)N[C@H](C(=O)N[C@H](C(=O)O)[C@@H](C)O)[C@@H](C)O)[C@@H](C)O)[C@@H](C)CC	HEK-293T cells	CCK-8	4 h, 37 °C, 10% cell death		lowest cytotoxic concentration	> 256 µg/mL
Cc1nc(Nc2ccc(F)cc2)nc(N2CCc3ccccc3C2C)c1C (stereo not drawn)	African green monkey cells		5 days		CC50	11.5 µM
CCOP(=S)(OCC)Oc1cc(C)nc(C(C)C)n1	rat hepatoma cells	cell confluency, IncuCyte imaging	24 h, nominal concentration		IC10	25.6 µM
CC(C)C[C@H](NC(=O)[C@H](CCCCN)NC(=O)[C@H](CCCCN)NC(=O)[C@H](CC(C)C)NC(=O)[C@H](CC(C)C)NC(=O)[C@H](CC(C)C)NC(=O)[C@H](CC(C)C)NC(=O)[C@H](CC(C)C)NC(=O)[C@H](CCCCN)NC(=O)[C@H](CCCCN)NC(=O)[C@@H](N)CC(C)C)C(=O)NCC(=O)NCC(=O)NCC(=O)N[C@@H](Cc1c[nH]c2ccccc12)C(=O)N[C@@H](CCCCN)C(=O)N[C@H](C(=O)N[C@@H](CC(N)=O)C(=O)N[C@@H](CCCCN)C(=O)N[C@@H](Cc1ccc(O)cc1)C(=O)NCC(=O)N[C@H](C(=O)N[C@@H](CC(C)C)C(=O)N[C@@H](Cc1ccc(O)cc1)C(=O)O)[C@@H](C)O)[C@@H](C)O	human red blood cells		1 h, 37 °C, 10% hemolysis		lowest hemolytic concentration	> 256 µg/mL
Nc1ccc([N+](=O)[O-])cc1	MDA-kb2	cytotoxicity			AC50	107 µM
Cc1ccccc1CN1CCN(CCOC(c2ccccc2)c2ccccc2Cl)CC1 (stereo not drawn)	African green monkey cells		5 days		CC50	15.3 µM
COc1cc2c(c(OC)c1OC)-c1ccc(OC)c(=O)cc1[C@@H](NC(C)=O)CC2	human peripheral blood lymphocytes	in vitro micronucleus test	0.1 µg/mL, 3 h exposure, -S9, 27 h harvest		cytostasis	87%
CN1CCN(CCCN2c3ccccc3Sc3ccc(S(=O)(=O)N(C)C)cc32)CC1	African green monkey cells		5 days		CC50	6.31 µM
Nc1ncnc2c1ncn2[C@@H]1O[C@@H]2COP(=O)(O)O[C@H]3[C@@H](O)[C@H](n4cnc5c(N)ncnc54)O[C@@H]3COP(=O)(O)O[C@H]2[C@H]1O	HFF-1		10 µg/mL		viability	90.2%

Repeated from above:
Structure (SMILES)	cell line	assay	conditions	how to read	measurement	value
Clc1cnn(CCCCN2CCN(c3ncccn3)CC2)c1	African green monkey cells		5 days		CC50	> 100 µM
COC(=O)N[C@H](C(=O)N1CCC[C@H]1c1nc(-c2ccc(-c3ccc(-c4c[nH]c([C@@H]5CCCN5C(=O)[C@@H](NC(=O)OC)C(C)C)n4)cc3)cc2)c[nH]1)C(C)C	African green monkey cells		5 days		CC50	19.7 µM
